Experimental data of several laboratories.
Parts stem from different laboratories: compare values within a part only. Several values in a cell are separate wells, animals, samples, runs or records. ± marks the error that the study gave.
UniProt Q9UPE1, sequence (whole entry, looked up): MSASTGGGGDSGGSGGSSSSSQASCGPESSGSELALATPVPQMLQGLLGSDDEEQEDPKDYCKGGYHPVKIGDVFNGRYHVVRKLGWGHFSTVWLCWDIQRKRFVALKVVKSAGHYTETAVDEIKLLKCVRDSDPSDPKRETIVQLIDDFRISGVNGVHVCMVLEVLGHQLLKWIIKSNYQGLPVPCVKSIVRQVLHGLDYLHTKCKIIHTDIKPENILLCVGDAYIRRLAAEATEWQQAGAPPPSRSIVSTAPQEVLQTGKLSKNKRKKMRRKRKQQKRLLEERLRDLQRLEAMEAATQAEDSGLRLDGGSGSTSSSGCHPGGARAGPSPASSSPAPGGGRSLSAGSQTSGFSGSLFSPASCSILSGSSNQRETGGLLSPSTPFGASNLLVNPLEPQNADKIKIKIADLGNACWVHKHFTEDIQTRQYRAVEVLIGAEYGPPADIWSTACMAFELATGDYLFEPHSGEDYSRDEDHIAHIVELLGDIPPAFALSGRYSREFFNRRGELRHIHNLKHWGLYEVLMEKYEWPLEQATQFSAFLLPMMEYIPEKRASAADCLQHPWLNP
UniProt P23458, sequence (whole entry, looked up): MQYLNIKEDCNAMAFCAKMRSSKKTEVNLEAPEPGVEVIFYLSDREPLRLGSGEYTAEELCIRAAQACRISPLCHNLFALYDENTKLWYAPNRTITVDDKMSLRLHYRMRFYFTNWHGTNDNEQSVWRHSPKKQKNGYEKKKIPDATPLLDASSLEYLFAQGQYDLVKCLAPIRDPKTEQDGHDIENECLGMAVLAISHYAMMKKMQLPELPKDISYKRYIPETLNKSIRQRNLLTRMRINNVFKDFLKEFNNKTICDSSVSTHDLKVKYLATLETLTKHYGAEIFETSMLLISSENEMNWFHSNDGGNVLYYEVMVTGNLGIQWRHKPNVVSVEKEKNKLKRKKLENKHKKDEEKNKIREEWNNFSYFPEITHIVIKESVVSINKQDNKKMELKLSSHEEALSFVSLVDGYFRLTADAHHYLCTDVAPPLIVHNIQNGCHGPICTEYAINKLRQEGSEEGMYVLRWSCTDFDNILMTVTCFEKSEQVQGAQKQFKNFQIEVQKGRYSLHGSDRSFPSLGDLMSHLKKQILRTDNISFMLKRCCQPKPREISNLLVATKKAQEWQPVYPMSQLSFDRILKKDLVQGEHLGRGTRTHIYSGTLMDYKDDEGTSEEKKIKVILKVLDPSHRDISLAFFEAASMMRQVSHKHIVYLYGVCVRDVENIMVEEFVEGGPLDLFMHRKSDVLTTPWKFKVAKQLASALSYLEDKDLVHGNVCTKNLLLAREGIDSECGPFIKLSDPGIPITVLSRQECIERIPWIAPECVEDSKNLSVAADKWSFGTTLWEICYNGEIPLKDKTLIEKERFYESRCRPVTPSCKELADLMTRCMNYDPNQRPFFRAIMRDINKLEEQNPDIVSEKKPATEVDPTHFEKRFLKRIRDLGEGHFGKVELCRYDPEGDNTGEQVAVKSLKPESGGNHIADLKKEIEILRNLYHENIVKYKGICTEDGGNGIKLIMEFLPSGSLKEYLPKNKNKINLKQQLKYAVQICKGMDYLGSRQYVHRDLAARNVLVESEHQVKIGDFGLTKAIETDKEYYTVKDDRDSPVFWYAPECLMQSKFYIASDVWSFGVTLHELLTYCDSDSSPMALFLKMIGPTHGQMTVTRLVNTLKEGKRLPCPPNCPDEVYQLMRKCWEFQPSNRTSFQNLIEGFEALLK
UniProt O96013, sequence (whole entry, looked up): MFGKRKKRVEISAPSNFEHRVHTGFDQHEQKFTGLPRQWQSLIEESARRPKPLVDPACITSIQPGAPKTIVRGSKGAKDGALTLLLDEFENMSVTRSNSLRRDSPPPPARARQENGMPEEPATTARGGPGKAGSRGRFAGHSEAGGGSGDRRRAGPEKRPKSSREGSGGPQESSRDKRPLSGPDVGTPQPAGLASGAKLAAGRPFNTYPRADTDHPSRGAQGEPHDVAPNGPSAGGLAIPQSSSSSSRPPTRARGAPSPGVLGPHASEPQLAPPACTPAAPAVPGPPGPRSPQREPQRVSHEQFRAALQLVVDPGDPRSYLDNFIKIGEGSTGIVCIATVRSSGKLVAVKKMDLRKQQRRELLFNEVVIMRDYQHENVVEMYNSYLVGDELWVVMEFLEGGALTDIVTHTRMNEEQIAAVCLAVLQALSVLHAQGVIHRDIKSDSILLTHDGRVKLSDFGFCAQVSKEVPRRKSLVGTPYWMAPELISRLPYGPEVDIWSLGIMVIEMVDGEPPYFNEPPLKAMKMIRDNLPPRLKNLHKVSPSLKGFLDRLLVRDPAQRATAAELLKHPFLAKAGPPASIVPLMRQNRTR

Study 1
Compound: CC[C@@]1(c2cccc(-c3c(F)cncc3OC)c2)C2=C(Nc3n[nH]cc31)[C@H](F)C(C)(C)CC2=O (single isomer, unassigned)
Concentration: 1 µM
target	effect on	technique	reference	remaining binding
Atypical kinase COQ8A, mitochondrial (COQ8A, Homo sapiens, UniProt Q8NI60)	binding	competition with immobilised ligand	–	100%
Ribosomal protein S6 kinase alpha-6, C-terminal kinase domain (RPS6KA6, Homo sapiens, UniProt Q9UK32)	binding	competition with immobilised ligand	–	98%
Bone morphogenetic protein receptor type-1B (BMPR1B, Homo sapiens, UniProt O00238)	binding	competition with immobilised ligand	–	67%
Epidermal growth factor receptor (EGFR, Homo sapiens, UniProt P00533, del746-750)	binding	competition with immobilised ligand	–	86%
Receptor-type tyrosine-protein kinase FLT3 (FLT3, Homo sapiens, UniProt P36888, K663Q)	binding	competition with immobilised ligand	–	94%
SRSF protein kinase 3 (SRPK3, Homo sapiens, UniProt Q9UPE1)	binding	competition with immobilised ligand	–	84%
Mitogen-activated protein kinase kinase kinase 14 (MAP3K14, Homo sapiens, UniProt Q99558)	kinase binding	KINOMEscan	DMSO control	60%
Tyrosine-protein kinase ABL1, phosphorylated (ABL1, Homo sapiens, UniProt P00519, H396P)	kinase binding	KINOMEscan	DMSO control	100%
STE20/SPS1-related proline-alanine-rich protein kinase (STK39, Homo sapiens, UniProt Q9UEW8)	binding	competition with immobilised ligand	–	79%
Tyrosine-protein kinase JAK1, JH2 (JAK1, Homo sapiens, UniProt P23458)	binding	competition with immobilised ligand	–	74%
Serine/threonine-protein kinase DCLK2 (DCLK2, Homo sapiens, UniProt Q8N568)	kinase binding	KINOMEscan	DMSO control	100%
Homeodomain-interacting protein kinase 1 (HIPK1, Homo sapiens, UniProt Q86Z02)	kinase binding	KINOMEscan	DMSO control	77%
LIM domain kinase 1 (LIMK1, Homo sapiens, UniProt P53667)	binding	competition with immobilised ligand	–	92%
Serine/threonine-protein kinase PAK 4 (PAK4, Homo sapiens, UniProt O96013)	binding	competition with immobilised ligand	–	100%
Cyclin-dependent kinase 4 (CDK4, Homo sapiens, UniProt P11802)	kinase binding	KINOMEscan	DMSO control	44%
Tyrosine-protein kinase ABL1, non-phosphorylated (ABL1, Homo sapiens, UniProt P00519)	binding	competition with immobilised ligand	–	100%
Casein kinase I isoform epsilon (CSNK1E, Homo sapiens, UniProt P49674)	binding	competition with immobilised ligand	–	82%

Study 2
SMILES: C[C@@H]1CN(c2ccc(-c3cc(C(=O)NCCOCCOCCOCCOCCNC(=O)Cn4cc(-c5[nH]cc(C(=O)N[C@@H](CC(N)=O)c6ccc(F)c(Cl)c6)c5-c5ccc(Cl)cc5F)cn4)ccc3F)cc2NC(=O)c2c[nH]c(=O)cc2C(F)(F)F)C[C@H](C)N1C
Effect on: thermal unfolding
Technique: differential scanning fluorimetry
Concentration: 5.5 µM
Reading: higher = more unfolded
DCAF1: DDB1- and CUL4-associated factor 1 (DCAF1, Homo sapiens, UniProt Q9Y4B6)
UniProt Q9Y4B6, sequence (whole entry, looked up): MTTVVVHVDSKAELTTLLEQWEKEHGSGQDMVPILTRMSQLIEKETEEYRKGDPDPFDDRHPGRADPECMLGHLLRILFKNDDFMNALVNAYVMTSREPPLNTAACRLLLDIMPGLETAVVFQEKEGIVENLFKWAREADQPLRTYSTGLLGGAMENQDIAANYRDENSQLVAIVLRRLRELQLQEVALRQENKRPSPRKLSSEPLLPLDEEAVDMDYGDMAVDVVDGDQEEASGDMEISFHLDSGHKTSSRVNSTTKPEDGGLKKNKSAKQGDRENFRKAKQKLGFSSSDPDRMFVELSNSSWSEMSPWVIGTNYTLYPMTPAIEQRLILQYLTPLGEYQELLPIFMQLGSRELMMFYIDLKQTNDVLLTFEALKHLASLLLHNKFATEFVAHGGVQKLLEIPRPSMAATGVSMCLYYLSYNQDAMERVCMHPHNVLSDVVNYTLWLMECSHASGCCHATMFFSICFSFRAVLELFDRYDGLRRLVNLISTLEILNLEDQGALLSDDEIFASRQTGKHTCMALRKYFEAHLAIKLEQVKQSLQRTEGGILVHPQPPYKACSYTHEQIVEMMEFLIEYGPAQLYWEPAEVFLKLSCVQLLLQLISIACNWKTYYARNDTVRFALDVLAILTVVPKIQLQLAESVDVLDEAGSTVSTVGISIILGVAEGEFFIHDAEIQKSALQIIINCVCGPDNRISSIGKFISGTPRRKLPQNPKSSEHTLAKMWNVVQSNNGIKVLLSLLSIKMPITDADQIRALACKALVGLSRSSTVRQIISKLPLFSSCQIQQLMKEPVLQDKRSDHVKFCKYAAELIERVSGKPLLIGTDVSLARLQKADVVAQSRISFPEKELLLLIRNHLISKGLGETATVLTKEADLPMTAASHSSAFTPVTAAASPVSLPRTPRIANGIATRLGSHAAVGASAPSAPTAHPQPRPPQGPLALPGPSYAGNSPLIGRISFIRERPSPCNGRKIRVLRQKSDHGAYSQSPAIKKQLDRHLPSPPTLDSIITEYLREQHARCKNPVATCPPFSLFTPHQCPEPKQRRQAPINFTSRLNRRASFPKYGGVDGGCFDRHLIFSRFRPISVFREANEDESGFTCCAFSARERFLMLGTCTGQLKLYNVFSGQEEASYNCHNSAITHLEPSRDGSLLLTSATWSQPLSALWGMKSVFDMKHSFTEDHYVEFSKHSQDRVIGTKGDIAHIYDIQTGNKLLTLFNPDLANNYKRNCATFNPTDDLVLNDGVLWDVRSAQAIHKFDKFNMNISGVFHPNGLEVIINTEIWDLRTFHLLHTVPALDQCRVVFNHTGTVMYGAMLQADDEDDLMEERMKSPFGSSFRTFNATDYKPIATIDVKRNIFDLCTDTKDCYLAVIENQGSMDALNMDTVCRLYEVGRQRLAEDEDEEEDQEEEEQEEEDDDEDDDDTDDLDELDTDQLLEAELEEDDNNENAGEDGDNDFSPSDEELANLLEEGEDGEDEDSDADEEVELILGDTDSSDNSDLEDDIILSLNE
WDR5: WD repeat-containing protein 5 (WDR5, Homo sapiens, UniProt P61964)
target	temperature	SYPRO Orange fluorescence [a.u.]
DCAF1	74.41 °C	49900
DCAF1	50.6 °C	15000
DCAF1	27.2 °C	7730
DCAF1	50.4 °C	14800
DCAF1	50.2 °C	14700
WDR5	87.41 °C	43300
WDR5	90.21 °C	43000
WDR5	61.61 °C	9460
DCAF1	35 °C	8840
DCAF1	39.4 °C	10100
WDR5	78.81 °C	19600

Study 3
SMILES: CCN1/C(=C/C=C2\CCCC(/C=C/C3=[N+](CC)c4ccccc4C3(C)C)=C2NCCCCCCCCN2CCC(Nc3nc4ccccc4n3Cc3ccc(F)cc3)CC2)C(C)(C)c2ccccc21
Cell line: U-87 MG
Concentration: concentration not given
Reference: DMSO
measured	log2 fold change
CCND3 mRNA	-1.65
PCNT mRNA	-0.8
EAF1 mRNA	1.18
TET1 mRNA	-3.55
GALT mRNA	-1.04
TANC1 mRNA	-1.08
CMKLR2 mRNA	1.34
NTNG1 mRNA	-1.16
SLC9A3R2 mRNA	-0.897
TAMALIN mRNA	-1.78
PRKACB mRNA	0.914
MED26 mRNA	0.864
TACC3 mRNA	-1.92
KIF2C mRNA	-1.61
UBE2B mRNA	0.875
TTF2 mRNA	-0.975

Study 4
Structure (SMILES): O=C(O)C1(O)Oc2ccccc2N(Cc2ccccc2)C1=O (centres unmarked)
organism	assay	test system	setting	scale	inhibition
Arabidopsis thaliana	hypocotyl length	Col-0	25.0 µg/mL, 7 days, seed germination, dark	–	22.5%
Avena fatua	fresh weight	–	150 g ai/ha, pre-emergence treatment	–	100%
Glycine max	fresh weight	–	soil surface spray, 150 g ai/ha, 21 days, pre-emergence crop safety	–	6.8% and 8% and 7.1%
Arabidopsis thaliana	hypocotyl length	Col-0	12.5 µg/mL, 7 days, seed germination, dark	–	9.5%
Arabidopsis thaliana	root length	Col-0, seedlings	50 µg/mL	–	19.2%
Amaranthus retroflexus	fresh weight	–	150 g ai/ha, post-emergence treatment	–	45.5% and 47.9% and 41%
Arabidopsis thaliana	hypocotyl length	Col-0, seedlings	100 µg/mL	–	36.4%
Arabidopsis thaliana	root length	Col-0, seedlings	25 µg/mL	reference: water control	14.6%
Arabidopsis thaliana	root length	Col-0, seedlings	6.25 µg/mL	reference: water control	3.91%
Arabidopsis thaliana	root length	Col-0, seedlings	25 µg/mL	–	14.6%
Arabidopsis thaliana	root length	Col-0, seedlings	50 µg/mL	reference: water control	19.2%
Arabidopsis thaliana	hypocotyl length	Col-0, seedlings	12.5 µg/mL	–	16.3%
Arabidopsis thaliana	hypocotyl length	Col-0	100 µg/mL, 7 days, seed germination, dark	–	31.2%

Study 5
Structure (SMILES): Cc1ncsc1-c1ccc(C(CO)NC(=O)C2CC(O)CN2C(=O)C(C(C)C)n2cc(-c3ccc(COc4c(-c5c(C)c(F)cc6[nH]ncc56)c(C5CC5)cc5c(N6CC7CC6CN7)nc(OC6CCOCC6)nc45)cc3)nn2)cc1 (centres unmarked)
Effect on: cell growth or viability
Technique: ATP luminescence
Time: 6 days
cell line	concentration	viability
PaTu 8902	10 µM	35.9% and 33% and 35.8% and 33.6%
SK-CO-1	0.1 µM	54.6% and 70.3% and 56.8% and 74%
HPAC	3 µM	1.3% and 1.32% and 2.71% and 0.976%
COLO 320	3 µM	91.9% and 88% and 86.1% and 88.5%
A-375	3 nM	87.7% and 85.1% and 99.9% and 83%
NCI-H358	1 µM	5.39% and 4.22% and 4.78% and 3.54%
NCI-H1299	3 nM	90% and 103% and 89.7% and 88.3%
SW-403	10 nM	88.9% and 83.8% and 93% and 88.5%
NCI-H358	3 nM	99% and 107% and 95.2% and 88.4%
ASPC1	3 µM	5.26% and 7.41% and 7.42% and 6.14%

Mixed results
MPO: Myeloperoxidase (MPO, Homo sapiens, UniProt P05164)
UniProt P05164, sequence (whole entry, looked up): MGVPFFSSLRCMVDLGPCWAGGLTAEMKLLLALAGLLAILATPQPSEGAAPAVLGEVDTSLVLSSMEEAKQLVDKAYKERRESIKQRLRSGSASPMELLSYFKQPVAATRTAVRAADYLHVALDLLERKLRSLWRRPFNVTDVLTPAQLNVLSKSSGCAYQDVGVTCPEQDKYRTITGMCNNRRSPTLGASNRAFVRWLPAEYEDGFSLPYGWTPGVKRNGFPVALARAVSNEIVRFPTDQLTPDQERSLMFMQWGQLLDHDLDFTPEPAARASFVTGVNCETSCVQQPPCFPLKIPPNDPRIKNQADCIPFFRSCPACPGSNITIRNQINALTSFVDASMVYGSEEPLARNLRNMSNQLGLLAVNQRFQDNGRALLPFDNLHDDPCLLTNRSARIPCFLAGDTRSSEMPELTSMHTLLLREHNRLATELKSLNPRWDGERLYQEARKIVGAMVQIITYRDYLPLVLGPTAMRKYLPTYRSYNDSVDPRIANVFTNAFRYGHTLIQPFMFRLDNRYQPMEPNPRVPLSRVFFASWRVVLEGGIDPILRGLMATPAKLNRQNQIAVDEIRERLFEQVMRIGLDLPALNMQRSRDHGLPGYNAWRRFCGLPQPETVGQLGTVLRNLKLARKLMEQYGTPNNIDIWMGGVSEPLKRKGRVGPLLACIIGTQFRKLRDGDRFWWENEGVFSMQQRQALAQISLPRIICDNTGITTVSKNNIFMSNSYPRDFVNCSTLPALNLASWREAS
PKMYT1: Membrane-associated tyrosine- and threonine-specific cdc2-inhibitory kinase (PKMYT1, Homo sapiens, UniProt Q99640)
UniProt Q99640, sequence (whole entry, looked up): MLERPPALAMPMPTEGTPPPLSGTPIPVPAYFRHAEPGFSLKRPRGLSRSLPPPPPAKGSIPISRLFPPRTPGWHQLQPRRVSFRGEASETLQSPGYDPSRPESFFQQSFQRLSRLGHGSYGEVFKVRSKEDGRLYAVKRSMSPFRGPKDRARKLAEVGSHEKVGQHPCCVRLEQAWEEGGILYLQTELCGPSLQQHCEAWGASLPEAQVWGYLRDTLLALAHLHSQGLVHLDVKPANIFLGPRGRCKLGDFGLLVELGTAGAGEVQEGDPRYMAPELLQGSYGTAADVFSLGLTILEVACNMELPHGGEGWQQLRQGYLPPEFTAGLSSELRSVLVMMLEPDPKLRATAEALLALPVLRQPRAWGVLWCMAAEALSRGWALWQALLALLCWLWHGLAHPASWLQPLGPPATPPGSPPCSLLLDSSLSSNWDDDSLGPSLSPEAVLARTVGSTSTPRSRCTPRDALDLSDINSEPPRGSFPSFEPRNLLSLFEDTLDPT
Compound	tested on	assay	test system	setting	scale	quantity	value
O=C(CCCCn1ccnc1Cn1ccc2ccc(CNCc3[nH]c4ccccc4c3C3NC(=O)c4ccc(O)cc43)cc21)NCCOCCOCCOCCNC(=O)CCc1ccc2n1[B-](F)(F)[N+]1=C(c3ccc[nH]3)C=CC1=C2 (centres unmarked)	GTPase HRas (HRAS, Homo sapiens, UniProt P01112, G12V)	target engagement, NanoBRET	HEK293 cells	–	–	EC50	> 1000 nM
C=C(CN)COc1cccc(Cn2c(=S)[nH]c(=O)c3[nH]cnc32)c1	Amine oxidase [copper-containing] 3 (AOC3, Homo sapiens, UniProt Q16853)	enzyme activity, Amplex Red H2O2 production	–	0.3704 µM, mean value	–	inhibition	22%
CN1CCC[C@H]1COc1nc2c(c(N3CCN(C(=O)C4CC4)[C@@H](CC#N)C3)n1)CCN(c1cccc3cccc(Cl)c13)C2	GTPase KRas (KRAS, Homo sapiens, UniProt P01116, G13D)	target engagement in cells, BRET	–	–	–	IC50	3300 nM
CCONC(=O)/C=C/CNCCCCN1c2cc(Cl)ccc2CCc2cnn(C)c21.O=C(O)/C=C\C(=O)O	–	–	mouse plasma	5 µM	–	half-life	0.543 ± 0.0317 h
Cc1ccc(O)c(C)c1-c1cnc2[nH]c(-c3cnc(N4CCC(CCN5CCN(c6ccc(NC7CCC(=O)NC7=O)cc6F)CC5)CC4)nc3)cc2c1C#N (centres unmarked)	–	–	female CD-1 mouse, plasma	oral, 10 mg/kg	–	half-life	3.4 h
NC/C(=C\F)COc1ccc(C(F)(F)F)c(Cn2c(=S)[nH]c(=O)c3[nH]cnc32)c1	MPO	enzyme activity	–	0.0137 µM	–	inhibition	19% and 26.9%
Fc1cccc(Nc2c3c(nc4ccccc24)CCC3)c1	Leishmania donovani	–	THP-1, DD8 promastigote	–	reference: THP-1 cytotoxicity over promastigote activity	selectivity ratio	1.34
C#Cc1cccc2cc(O)cc(-c3ncc4c(N5CC6CCC(C5)N6)nc(OCC56CCCN5CCC6)nc4c3F)c12	GTPase KRas (KRAS, Homo sapiens, UniProt P01116, G12V)	target engagement in cells, BRET	–	–	–	IC50	700 nM
Cc1ccc(O)c(C)c1-c1cnc2[nH]c(-c3cnc(N4CCC5(CC4)CC(N4CCN(c6ccc7c(c6)C(=O)N(C6CCC(=O)NC6=O)C7=O)CC4)CO5)nc3)cc2c1C#N (mixture of isomers)	PKMYT1	binding, HTRF	–	0.15 nM	–	inhibition	2.01% and 3.73%
Cc1nc(C)c(C=[N+]([O-])C(C)(C)C)nc1C	–	HPLC-ECD	MPTP mouse model, striatum	90 mg/kg	–	striatal HVA content	1.59 ng/mg tissue and 1.25 ng/mg tissue and 0.809 ng/mg tissue and 1.57 ng/mg tissue and 0.678 ng/mg tissue and 0.668 ng/mg tissue and 0.664 ng/mg tissue
CC(C)C[C@@H]1NC(=O)[C@@H](N(C)C(=O)[C@@H](NC(=O)[C@@H]2C[C@@H](F)CN2C(=O)C2(C(F)(F)F)CC(F)(F)C2)C2CC2)CCCCCCCN(C)C(=O)[C@H](Cc2cc(Cl)cnc2OC2CC2)N(C)C1=O	–	immunohistochemistry	mice, sample A PDX, tumour	oral, 100 mg/kg three times daily for 4 d, 8 h after last dose	–	cleaved caspase-3 positive cells	2.24% and 2.15% and 2.84%
NC/C(=C\F)COc1ccc(-c2cc(=O)[nH]c(=S)n2CC(N)=O)c(Cl)c1	MPO	enzyme activity, inhibitor, fluorescence	–	3.333 µM	–	inhibition	89.1%
Cc1ccc(O)c(C)c1-c1cnc2[nH]c(-c3cnc(N)nc3)cc2c1C#N	PKMYT1	target engagement, NanoBRET	–	4.12 nM	–	NanoBRET signal	21.5 mBU and 21.7 mBU
CCOC(=O)/C=C/CNCCCCN1c2cc(Cl)ccc2CCc2cnn(C)c21.O=C(O)/C=C\C(=O)O	NCI-H292	CellTiter-Glo	–	50 µM, 72 h	higher = more viable cells	luminescence	53900 a.u. and 51700 a.u. and 57900 a.u.
Cc1ccc(O)c(C)c1-c1cnc2[nH]c(-c3cnc(N4CC5(CC(CN6CCN(c7ccc(NC8CCC(=O)NC8=O)cc7F)CC6)C5)C4)nc3)cc2c1C#N (centres unmarked)	–	–	female CD-1 mouse, plasma	oral, 10 mg/kg	–	half-life	1.6 h
Clc1ccc(Nc2c3c(nc4ccccc24)CCC3)cc1	Leishmania donovani	–	THP-1, DD8 promastigote	–	reference: THP-1 cytotoxicity over promastigote activity	selectivity ratio	3.04
